Experimental data pooled from the literature.
Each numbered part is a random draw from the data of one study; scales do not carry over between parts. Substitutions count along the parent as printed.

Block 1 — technique: aptamer microarray, sandwich; molecule type: DNA with 2'F-ANA; matrix: in vitro; concentration: 200 nM; added: Cy3 exosite-II aptamer, 400 nM; direction: higher = stronger binding; oligonucleotide: GGTTGGTGTGGTTGG
Target: Prothrombin, mature alpha-thrombin (F2, Homo sapiens, UniProt P00734)
Notes: whole 15-mer aptamer, many near background
Modification	mean fluorescence intensity
2'F-ANA at 2 3 4 6 8 9 11 13	437 a.u.
2'F-ANA at 1 3 4 9 11 12 13 14 15	67.3 a.u.
2'F-ANA at 1 8 12 14 15	75.7 a.u.
2'F-ANA at 1 2 3 4 5 6 7 8 9 11 13 14 15	54.2 a.u.
2'F-ANA at 2 3 4 5 6 11	77.3 a.u.
2'F-ANA at 1 2 3 5 10 11 12 13 14	52 a.u.
2'F-ANA at 2 5 8 10 14	43.8 a.u.
2'F-ANA at 3 4 6 7 9 13 15	368 a.u.

Block 2 — technique: protein binding microarray; molecule type: double-stranded DNA, one strand shown; matrix: in vitro; concentration: not given; baseline: not given; direction: higher = stronger binding
Target: Histone acetyltransferase KAT6A, winged helix 1, GST fusion (KAT6A, Homo sapiens, UniProt Q92794, residues 1-85)
Notes: 8-mer, flanks averaged, mean of 2 arrays, mostly near background
Residues (chain): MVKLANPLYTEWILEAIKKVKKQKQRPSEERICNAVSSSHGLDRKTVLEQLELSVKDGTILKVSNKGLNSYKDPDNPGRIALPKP
Oligonucleotide	E-score
ATGGTTTG	-0.0938
CAAAGTAA	-0.161
TAATCTAA	-0.0275
CGAACAGA	-0.131
CGGTGCCA	0.187
CGCTTATC	0.132
CGAGTGAA	-0.0476
CATTCACA	-0.354

Other studies, line by line
P1: viral docking peptide; CKVKRKLFGSENI; partner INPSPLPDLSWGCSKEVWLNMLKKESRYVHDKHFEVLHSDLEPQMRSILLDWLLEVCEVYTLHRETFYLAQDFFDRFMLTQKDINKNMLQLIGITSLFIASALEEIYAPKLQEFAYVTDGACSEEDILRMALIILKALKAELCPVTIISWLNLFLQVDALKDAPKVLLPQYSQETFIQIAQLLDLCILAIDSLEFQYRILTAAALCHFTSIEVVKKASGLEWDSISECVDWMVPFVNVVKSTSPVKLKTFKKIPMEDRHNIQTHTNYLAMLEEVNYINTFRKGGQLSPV
Substance	tested on	assay	test system	conditions	scale	quantity	value
SPTLC1 (Homo sapiens, UniProt O15269)	HDAC10 (Homo sapiens, UniProt Q969S8)	cross-linking MS	cell fractions	added: DHSO	–	cross-linked residues	E400 to E67
P1 E11A	CCNE2, cyclin fold, Cln2 fusion (human)	yeast growth competition, sequencing	yeast	strong parent motif	baseline: not given, higher = stronger binding	normalised enrichment score	2.88
EIF3CL (Homo sapiens, UniProt B5ME19)	EIF3A (Homo sapiens, UniProt Q14152)	cross-linking MS	–	hits only	–	interaction screen	cross-linked
SLC39A11 (Homo sapiens, UniProt Q8N1S5)	MACF1 (Homo sapiens, UniProt Q9UPN3)	cross-linking MS	cell fractions	added: DSSO	–	cross-linked residues	K163 to K3807
MYH9 (Homo sapiens, UniProt P35579)	MYH10 (Homo sapiens, UniProt P35580)	cross-linking MS	cell fractions	added: DMTMM	–	cross-linked residues	E1149 to K1256

For quick reference, copied from above (block 2):
Oligonucleotide	E-score
CAAAGTAA	-0.161
TAATCTAA	-0.0275
CGAACAGA	-0.131
